# Measured values pooled from the literature.
# Numbered parts are unrelated; each lists some results of a single study. Positions count from the first letter of the parent shown.
# Chain of UniProt P30291 (whole entry, looked up): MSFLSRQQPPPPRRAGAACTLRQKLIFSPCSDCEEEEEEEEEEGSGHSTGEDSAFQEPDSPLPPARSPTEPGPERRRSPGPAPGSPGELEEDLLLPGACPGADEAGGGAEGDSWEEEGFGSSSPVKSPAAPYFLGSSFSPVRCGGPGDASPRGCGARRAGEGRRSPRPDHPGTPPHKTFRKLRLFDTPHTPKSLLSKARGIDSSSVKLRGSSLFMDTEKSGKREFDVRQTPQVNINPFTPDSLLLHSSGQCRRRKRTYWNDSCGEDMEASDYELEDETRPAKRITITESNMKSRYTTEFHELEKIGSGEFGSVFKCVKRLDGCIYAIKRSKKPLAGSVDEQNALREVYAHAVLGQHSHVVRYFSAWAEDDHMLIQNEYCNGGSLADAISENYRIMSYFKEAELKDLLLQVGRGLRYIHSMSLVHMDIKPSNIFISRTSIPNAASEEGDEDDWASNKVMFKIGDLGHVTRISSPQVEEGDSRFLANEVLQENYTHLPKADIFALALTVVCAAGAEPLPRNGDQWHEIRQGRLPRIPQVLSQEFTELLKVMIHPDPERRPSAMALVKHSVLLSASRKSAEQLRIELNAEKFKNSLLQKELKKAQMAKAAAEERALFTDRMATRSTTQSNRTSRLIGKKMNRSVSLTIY
# Chain of UniProt P06239 (whole entry, looked up): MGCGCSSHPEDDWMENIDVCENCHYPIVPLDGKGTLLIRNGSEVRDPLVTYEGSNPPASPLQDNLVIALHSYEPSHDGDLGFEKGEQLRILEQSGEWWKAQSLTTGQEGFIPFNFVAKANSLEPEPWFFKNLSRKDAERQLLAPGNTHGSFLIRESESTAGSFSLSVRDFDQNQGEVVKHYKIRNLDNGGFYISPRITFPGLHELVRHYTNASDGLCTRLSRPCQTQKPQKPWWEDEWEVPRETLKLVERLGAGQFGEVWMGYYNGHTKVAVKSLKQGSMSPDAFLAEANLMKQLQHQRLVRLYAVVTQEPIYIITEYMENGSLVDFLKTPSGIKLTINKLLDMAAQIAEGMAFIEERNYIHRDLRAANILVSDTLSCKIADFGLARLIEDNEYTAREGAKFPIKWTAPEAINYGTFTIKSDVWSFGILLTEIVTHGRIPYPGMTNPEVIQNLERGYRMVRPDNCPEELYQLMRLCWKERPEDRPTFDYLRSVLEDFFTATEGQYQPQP
# Chain of UniProt P36896 (whole entry, looked up): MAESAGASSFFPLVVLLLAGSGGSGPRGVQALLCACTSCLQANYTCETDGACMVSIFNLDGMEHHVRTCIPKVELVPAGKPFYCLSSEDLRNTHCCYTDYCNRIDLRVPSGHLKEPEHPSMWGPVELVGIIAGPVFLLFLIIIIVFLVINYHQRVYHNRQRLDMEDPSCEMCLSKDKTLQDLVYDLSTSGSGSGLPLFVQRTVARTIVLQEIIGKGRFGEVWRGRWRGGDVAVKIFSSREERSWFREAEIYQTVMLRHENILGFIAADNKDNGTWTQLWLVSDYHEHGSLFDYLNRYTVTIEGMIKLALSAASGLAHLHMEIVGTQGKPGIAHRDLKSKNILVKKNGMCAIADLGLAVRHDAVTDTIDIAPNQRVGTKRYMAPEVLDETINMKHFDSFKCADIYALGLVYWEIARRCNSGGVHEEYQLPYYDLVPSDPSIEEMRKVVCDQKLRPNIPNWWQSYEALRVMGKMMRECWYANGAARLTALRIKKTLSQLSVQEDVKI
# Chain of UniProt P49841 (whole entry, looked up): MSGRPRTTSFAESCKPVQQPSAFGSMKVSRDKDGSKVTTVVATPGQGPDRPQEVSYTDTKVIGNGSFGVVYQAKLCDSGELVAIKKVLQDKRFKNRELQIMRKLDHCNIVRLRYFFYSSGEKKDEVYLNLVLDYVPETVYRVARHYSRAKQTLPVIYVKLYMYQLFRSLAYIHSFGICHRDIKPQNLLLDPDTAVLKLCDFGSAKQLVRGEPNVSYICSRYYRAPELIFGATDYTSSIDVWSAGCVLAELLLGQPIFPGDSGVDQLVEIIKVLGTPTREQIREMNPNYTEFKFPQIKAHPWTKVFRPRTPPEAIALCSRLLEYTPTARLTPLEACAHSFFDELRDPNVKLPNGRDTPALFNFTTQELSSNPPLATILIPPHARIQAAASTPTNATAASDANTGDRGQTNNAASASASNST
# Chain of UniProt P42684 (whole entry, looked up): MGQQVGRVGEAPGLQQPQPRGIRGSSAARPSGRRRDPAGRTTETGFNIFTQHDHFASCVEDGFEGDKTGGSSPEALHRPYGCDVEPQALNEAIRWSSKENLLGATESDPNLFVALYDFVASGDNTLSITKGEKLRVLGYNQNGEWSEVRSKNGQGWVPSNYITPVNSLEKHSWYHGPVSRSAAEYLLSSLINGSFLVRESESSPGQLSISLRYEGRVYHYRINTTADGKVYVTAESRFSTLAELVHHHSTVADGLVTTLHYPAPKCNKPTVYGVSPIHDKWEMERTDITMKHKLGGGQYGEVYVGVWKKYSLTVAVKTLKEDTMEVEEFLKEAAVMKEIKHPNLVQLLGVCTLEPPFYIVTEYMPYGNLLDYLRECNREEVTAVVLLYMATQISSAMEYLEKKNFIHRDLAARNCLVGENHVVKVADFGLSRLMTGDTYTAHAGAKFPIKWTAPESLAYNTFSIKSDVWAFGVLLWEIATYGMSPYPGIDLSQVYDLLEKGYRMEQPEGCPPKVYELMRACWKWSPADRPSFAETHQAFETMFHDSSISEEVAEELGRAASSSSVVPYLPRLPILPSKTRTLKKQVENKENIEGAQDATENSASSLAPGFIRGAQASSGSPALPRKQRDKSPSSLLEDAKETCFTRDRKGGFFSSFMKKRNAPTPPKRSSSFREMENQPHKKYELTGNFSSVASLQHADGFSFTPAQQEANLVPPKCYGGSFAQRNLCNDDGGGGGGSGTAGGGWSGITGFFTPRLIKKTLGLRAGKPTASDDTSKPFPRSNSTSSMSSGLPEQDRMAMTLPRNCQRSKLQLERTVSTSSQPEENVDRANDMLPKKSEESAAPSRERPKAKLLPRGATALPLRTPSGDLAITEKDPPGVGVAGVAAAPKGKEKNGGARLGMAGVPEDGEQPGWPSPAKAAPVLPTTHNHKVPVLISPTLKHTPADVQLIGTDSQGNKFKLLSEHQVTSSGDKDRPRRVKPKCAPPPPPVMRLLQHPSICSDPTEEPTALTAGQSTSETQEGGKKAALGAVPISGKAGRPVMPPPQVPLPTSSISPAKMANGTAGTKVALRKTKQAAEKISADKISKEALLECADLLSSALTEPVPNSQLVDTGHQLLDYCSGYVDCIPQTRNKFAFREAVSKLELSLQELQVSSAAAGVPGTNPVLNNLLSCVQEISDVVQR
# Chain of UniProt P51812 (whole entry, looked up): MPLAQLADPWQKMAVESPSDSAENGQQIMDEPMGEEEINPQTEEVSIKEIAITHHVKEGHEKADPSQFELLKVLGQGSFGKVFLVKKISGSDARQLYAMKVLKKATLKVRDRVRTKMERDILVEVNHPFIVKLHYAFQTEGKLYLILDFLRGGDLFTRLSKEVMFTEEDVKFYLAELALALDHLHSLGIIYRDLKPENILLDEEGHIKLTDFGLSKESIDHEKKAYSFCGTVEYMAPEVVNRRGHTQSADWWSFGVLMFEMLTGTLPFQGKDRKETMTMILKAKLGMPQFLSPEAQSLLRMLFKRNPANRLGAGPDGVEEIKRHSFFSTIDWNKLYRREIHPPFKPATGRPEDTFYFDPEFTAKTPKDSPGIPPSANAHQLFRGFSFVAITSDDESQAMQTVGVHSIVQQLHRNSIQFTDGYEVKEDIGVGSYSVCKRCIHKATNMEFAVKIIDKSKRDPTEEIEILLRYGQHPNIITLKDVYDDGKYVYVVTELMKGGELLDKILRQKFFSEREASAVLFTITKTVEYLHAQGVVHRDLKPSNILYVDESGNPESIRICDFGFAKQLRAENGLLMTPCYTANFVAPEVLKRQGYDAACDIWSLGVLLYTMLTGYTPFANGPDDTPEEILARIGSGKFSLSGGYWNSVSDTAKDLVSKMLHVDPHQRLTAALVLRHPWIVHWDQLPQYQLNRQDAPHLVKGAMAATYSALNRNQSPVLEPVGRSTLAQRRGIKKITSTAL
# Chain of UniProt Q6PHR2 (whole entry, looked up): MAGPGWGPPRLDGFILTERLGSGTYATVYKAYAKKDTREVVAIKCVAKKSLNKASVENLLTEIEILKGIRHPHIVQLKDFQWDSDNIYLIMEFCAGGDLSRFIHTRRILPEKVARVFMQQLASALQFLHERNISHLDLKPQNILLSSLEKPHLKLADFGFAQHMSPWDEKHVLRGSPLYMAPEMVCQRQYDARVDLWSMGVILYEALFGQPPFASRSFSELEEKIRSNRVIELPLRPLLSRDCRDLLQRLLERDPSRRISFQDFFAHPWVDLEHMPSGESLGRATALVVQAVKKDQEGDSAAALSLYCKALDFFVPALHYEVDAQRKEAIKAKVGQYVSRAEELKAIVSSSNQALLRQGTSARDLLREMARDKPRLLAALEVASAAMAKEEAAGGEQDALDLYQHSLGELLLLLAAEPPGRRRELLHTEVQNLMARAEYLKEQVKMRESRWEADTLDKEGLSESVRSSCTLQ
# Chain of UniProt P42685 (whole entry, looked up): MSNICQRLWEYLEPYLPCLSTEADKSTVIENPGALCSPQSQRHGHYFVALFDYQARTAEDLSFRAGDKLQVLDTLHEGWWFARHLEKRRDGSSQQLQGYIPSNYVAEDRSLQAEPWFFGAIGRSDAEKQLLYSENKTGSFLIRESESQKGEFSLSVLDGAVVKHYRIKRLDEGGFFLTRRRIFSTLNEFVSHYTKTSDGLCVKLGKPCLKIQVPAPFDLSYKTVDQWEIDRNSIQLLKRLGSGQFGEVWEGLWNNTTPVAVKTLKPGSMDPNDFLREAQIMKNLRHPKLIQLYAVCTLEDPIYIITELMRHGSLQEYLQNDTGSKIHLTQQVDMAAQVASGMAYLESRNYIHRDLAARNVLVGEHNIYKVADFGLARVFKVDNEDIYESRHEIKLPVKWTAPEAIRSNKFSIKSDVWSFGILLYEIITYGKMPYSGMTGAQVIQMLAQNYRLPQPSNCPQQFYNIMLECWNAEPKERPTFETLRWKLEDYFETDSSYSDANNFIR

# Block 1
# Target: CCNB3, cyclin fold, Cln2 fusion (human)
# Method: yeast growth competition, sequencing
# Matrix: yeast
# Setting: weak parent motif
# Relative to: not given
# Direction: higher = stronger binding
# Starting sequence: E2F1 docking peptide (human); PPVKRRLDLETDH
Variant,normalised enrichment score
IPVKRRLDLETDH [P1I],0.313
PPVKRRLDLETTH [D12T],0.137
PPVKRRLDLETAH [D12A],0.638
PPVKRTLDLETDH [R6T],0.821
PPVCRRLDLETDH [K4C],0.413
PPVKHRLDLETDH [R5H],-0.353
PPVKRRLDLLTDH [E10L],0.413
PPVLRRLDLETDH [K4L],0.504

# Block 2
# SMILES: CS(=O)(=O)NCC[C@H](NC(=O)c1cncc2c1cnn2-c1ccc(F)cc1)c1ccnc(S(C)(=O)=O)c1
# Read-out: cell-free assay
# Method: competition with immobilised ligand
# Concentration: 1 µM
target,remaining binding
"MYLK (Homo sapiens, UniProt Q15746)",100%
"ROCK1 (Homo sapiens, UniProt Q13464)",100%
"KIT (Homo sapiens, UniProt P10721, V559D/V654A)",100%
"AKT1 (Homo sapiens, UniProt P31749)",100%
"Ribosomal protein S6 kinase alpha-3, N-terminal kinase domain (RPS6KA3, Homo sapiens, UniProt P51812)",100%

# Block 3
# Structure (SMILES): CCC(=O)Nc1ccc2ncnc(Nc3cccc(Br)c3)c2c1
# Read-out: enzyme activity
# Action: inhibitor
# Concentration: 0.5 µM
# Relative to: control
target,remaining activity
"TEK (Homo sapiens, UniProt Q02763)",91.2%
"ACVR1B (Homo sapiens, UniProt P36896)",96.5%
"ULK3 (Homo sapiens, UniProt Q6PHR2)",97.5%
"FGFR1 (Homo sapiens, UniProt P11362)",108%
"WEE1 (Homo sapiens, UniProt P30291)",80.2%
"LCK (Homo sapiens, UniProt P06239)",93.1%
"MAP3K14 (Homo sapiens, UniProt Q99558)",116%
"FGFR3 (Homo sapiens, UniProt P22607)",93.2%
"JAK3 (Homo sapiens, UniProt P52333)",98.3%
"CSNK1G2 (Homo sapiens, UniProt P78368)",98.1%
"ABL2 (Homo sapiens, UniProt P42684)",96.6%
"GSK3B (Homo sapiens, UniProt P49841)",91.2%
"MAP2K2 (Homo sapiens, UniProt P36507)",85.1%
"FRK (Homo sapiens, UniProt P42685)",66.8%

# Other studies, line by line
# Species: mouse
# Matrix: microsomes or S9
# Concentration: 2 µM
# Time: 0.5 h
Structure (SMILES),remaining compound [%]
CCOC(=O)C1CCN(C(=O)CCc2ccc(C(C)(C)C)cc2)CC1,0.217
CCOC(=O)c1c2ccccc2n2/c(=C\c3ccccc3C)c3ccccc3c12,56.7

# For quick reference, copied from above (block 1):
Variant,normalised enrichment score
PPVKRRLDLETTH [D12T],0.137
PPVKRRLDLLTDH [E10L],0.413
